Measured values from different studies.
A part holds a random share of what one study measured.
Chain of UniProt Q9UJQ4 (whole entry, looked up): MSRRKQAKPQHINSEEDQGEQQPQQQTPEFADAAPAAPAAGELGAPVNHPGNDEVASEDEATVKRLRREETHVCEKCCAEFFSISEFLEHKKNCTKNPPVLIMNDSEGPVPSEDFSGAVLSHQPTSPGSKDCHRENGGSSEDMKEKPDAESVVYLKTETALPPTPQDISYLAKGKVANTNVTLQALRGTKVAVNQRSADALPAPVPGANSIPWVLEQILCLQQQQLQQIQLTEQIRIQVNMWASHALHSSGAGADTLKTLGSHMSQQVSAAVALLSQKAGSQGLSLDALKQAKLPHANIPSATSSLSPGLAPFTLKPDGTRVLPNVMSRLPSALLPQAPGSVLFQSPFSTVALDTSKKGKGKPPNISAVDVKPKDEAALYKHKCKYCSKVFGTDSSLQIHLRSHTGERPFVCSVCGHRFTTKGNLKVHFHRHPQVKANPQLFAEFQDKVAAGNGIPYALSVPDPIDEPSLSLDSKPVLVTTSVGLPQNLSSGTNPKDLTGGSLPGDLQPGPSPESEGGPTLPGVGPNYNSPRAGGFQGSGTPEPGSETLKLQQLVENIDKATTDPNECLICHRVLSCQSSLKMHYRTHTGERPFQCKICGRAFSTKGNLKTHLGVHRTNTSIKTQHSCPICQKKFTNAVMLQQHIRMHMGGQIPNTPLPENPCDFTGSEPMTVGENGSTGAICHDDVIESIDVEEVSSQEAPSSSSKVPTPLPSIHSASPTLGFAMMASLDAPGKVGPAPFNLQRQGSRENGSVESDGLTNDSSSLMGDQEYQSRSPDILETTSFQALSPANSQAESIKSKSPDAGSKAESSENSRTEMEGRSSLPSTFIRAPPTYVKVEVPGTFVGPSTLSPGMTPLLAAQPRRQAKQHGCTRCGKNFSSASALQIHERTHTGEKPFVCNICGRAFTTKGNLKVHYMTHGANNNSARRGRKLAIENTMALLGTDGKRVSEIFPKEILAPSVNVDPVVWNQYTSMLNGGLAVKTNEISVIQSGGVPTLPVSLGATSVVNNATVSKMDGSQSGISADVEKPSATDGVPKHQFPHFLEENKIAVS

Series 1 — method: protein-binding microarray; molecule type: double-stranded DNA, one strand shown; sample: in vitro; concentration: 0.8 µM; setting: whole 60-bp probe, no competitor; direction: higher = stronger binding
Target: Centromere-binding protein 1, full length, N-terminal tag (CBF1, Saccharomyces cerevisiae, UniProt P17106, residues 1-351)
Chain of UniProt P17106 (whole entry, looked up): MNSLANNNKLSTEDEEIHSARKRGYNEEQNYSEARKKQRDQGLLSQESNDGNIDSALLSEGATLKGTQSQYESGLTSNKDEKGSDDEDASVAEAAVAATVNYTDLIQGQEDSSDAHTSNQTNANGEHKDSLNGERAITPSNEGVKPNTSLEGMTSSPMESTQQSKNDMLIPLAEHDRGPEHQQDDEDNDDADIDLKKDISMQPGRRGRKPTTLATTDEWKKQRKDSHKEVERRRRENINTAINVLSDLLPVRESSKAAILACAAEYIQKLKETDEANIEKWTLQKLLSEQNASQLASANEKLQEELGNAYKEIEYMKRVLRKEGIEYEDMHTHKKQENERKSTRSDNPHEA
`CTACCAATTCAGACTCACGAGAAAAAAAACTGTTTCGTCTTGATTCGCTTGACGCTGCTG` gave a fluorescence intensity of 652 a.u.
The fluorescence intensity of `CTACAATAAGAGAACATCGTGAAACAACATAAATTCGTCTTGATTCGCTTGACGCTGCTG` is reported as 565 a.u.
For `CTACAGGATCTTGGTCACATATATATATATATATTCGTCTTGATTCGCTTGACGCTGCTG`, the fluorescence intensity was 3450 a.u.

Series 2 — method: protein binding microarray; molecule type: double-stranded DNA, one strand shown; sample: in vitro; concentration: not given; relative to: not given; direction: higher = stronger binding
Target: Histone acetyltransferase KAT6A, both winged helices, GST fusion (KAT6A, Homo sapiens, UniProt Q92794, residues 1-181)
Setting: 8-mer, flanks averaged, mean of 2 arrays, mostly near background
Target sequence (chain): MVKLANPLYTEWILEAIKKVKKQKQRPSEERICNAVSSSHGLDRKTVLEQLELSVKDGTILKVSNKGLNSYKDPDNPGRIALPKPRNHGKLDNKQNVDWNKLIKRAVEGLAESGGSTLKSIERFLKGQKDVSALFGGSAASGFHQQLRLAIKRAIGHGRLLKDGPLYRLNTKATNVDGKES
For `CCATTGGC`, the E-score was -0.0938.
With `GGGGGACC` the E-score was -0.133.
`CAGTCCAG` has an E-score of -0.144.

Mixed results
`AAGTCGTC` has an E-score of -0.0653 (Sal-like protein 4, full length isoform A (SALL4, Homo sapiens, UniProt Q9UJQ4, residues 1-1053); universal PBM; double-stranded DNA, one strand shown, in vitro; 600 nM, 8-mer, flanks averaged, mean of replicates; higher = stronger binding).
The fold induction of `PhoQ, residues 284 288 289 292 302 303 SLANIV` is reported as 11 (PhoP, residues 12 14 15 18 19 GQAIL (Escherichia coli, UniProt P23836); Sort-seq, item: YFP reporter; E. coli; PhoQ-PhoP variant library, together with: 10 µM Mg2+; relative to: high Mg2+ state, higher = stronger signaling).

Some of these lines once more (series 2):
`CAGTCCAG` has an E-score of -0.144.
